# Assay results of several laboratories.
# Each line is one published result; not all experiments were run side by side. “And” joins repeats or separate records; there may be more than shown. ± marks the error that the study gave.
# PNLIP: Pancreatic triacylglycerol lipase (PNLIP, Homo sapiens, UniProt P16233)
# UniProt P16233, sequence (whole entry, looked up): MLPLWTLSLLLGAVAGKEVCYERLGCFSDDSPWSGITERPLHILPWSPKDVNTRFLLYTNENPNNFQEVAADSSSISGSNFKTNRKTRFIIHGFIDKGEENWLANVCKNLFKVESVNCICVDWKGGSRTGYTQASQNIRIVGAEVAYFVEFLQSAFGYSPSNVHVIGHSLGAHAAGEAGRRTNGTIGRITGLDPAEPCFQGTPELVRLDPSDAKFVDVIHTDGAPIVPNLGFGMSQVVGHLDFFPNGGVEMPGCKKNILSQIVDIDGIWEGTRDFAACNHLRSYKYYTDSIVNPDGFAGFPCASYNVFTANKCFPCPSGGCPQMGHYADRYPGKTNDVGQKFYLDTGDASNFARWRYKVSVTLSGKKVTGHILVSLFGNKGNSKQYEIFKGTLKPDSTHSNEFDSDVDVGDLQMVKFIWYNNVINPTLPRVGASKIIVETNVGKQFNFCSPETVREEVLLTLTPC
# CRBN/Zinc finger protein Aiolos: CRBN/Zinc finger protein Aiolos (Homo sapiens, UniProt Q96SW2+Q9UKT9)
# CTSS: Cathepsin S (CTSS, Homo sapiens, UniProt P25774)
# UniProt P25774, sequence (whole entry, looked up): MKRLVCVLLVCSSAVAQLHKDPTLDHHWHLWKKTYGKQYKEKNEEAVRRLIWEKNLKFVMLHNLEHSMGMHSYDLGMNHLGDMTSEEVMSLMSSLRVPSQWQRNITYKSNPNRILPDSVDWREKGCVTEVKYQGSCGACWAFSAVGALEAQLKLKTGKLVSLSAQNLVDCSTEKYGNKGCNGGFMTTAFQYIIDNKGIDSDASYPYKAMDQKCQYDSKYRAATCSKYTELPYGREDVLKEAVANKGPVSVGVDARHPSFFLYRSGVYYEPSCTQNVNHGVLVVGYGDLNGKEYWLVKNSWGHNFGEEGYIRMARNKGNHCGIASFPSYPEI
# MAPK9: Mitogen-activated protein kinase 9 (MAPK9, Homo sapiens, UniProt P45984)
# UniProt P54578, sequence (whole entry, looked up): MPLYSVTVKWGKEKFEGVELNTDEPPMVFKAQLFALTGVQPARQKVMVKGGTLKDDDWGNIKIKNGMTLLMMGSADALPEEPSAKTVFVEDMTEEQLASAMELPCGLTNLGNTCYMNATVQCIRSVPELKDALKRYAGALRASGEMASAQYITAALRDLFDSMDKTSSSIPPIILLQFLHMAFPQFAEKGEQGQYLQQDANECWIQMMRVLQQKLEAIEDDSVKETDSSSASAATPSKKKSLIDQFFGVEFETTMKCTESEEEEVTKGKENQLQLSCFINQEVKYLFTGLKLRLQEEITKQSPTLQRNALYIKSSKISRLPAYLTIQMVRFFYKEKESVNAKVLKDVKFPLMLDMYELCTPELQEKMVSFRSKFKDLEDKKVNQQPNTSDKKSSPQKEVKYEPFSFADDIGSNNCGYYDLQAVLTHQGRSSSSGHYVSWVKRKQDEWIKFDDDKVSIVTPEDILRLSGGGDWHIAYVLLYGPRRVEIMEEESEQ
# UniProt P14778, sequence (whole entry, looked up): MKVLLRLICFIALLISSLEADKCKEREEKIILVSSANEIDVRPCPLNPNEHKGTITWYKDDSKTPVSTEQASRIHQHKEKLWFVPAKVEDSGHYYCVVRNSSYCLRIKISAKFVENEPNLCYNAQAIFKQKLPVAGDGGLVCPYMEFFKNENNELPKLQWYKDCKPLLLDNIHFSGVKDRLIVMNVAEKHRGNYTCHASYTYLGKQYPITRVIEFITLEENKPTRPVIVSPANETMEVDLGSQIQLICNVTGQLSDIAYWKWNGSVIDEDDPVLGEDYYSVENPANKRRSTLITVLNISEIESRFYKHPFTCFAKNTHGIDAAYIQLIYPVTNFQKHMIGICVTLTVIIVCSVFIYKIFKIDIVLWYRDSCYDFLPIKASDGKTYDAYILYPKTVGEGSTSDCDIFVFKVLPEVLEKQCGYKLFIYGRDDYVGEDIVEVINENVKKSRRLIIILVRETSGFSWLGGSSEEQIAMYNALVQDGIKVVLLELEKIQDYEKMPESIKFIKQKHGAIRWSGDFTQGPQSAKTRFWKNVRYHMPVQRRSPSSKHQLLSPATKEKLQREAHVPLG
# UniProt Q16539, sequence (whole entry, looked up): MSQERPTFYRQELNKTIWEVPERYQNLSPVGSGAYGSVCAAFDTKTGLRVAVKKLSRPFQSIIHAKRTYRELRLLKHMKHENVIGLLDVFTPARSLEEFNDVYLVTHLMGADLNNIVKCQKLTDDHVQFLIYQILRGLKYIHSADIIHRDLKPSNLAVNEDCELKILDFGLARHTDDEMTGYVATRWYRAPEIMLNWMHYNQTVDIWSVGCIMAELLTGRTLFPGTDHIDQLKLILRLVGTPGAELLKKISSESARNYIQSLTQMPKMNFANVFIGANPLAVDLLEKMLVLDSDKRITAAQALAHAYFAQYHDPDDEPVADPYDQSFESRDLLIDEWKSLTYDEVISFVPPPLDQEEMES
# UniProt P45983, sequence (whole entry, looked up): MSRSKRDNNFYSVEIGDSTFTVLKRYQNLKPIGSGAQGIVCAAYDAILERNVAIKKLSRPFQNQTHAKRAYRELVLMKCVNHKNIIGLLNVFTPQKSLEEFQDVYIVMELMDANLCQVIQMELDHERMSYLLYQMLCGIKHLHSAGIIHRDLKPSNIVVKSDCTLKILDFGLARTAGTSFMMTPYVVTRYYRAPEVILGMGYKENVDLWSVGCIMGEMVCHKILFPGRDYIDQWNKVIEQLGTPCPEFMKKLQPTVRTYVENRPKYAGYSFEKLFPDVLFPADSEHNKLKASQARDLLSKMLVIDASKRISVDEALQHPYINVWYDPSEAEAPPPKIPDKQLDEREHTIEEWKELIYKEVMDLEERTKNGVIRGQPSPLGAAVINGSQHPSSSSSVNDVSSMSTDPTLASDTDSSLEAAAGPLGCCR
# UniProt P00748, sequence (whole entry, looked up): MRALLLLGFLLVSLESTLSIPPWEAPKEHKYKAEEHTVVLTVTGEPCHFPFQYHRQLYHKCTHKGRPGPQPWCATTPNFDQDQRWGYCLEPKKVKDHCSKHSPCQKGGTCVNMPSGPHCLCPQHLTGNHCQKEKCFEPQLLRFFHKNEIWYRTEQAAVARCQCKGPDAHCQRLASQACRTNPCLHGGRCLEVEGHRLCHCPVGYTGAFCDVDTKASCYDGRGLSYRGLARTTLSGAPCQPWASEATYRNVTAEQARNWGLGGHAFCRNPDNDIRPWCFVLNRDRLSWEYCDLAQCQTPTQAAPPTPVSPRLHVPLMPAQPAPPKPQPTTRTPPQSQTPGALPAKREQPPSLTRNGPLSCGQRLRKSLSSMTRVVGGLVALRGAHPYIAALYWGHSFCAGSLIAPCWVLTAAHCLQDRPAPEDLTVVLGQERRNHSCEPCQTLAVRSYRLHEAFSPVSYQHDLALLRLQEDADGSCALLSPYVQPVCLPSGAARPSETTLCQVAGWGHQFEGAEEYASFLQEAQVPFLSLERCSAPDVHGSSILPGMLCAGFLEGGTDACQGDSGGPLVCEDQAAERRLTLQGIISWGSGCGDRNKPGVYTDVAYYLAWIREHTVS
# UniProt Q9HB29, sequence (whole entry, looked up): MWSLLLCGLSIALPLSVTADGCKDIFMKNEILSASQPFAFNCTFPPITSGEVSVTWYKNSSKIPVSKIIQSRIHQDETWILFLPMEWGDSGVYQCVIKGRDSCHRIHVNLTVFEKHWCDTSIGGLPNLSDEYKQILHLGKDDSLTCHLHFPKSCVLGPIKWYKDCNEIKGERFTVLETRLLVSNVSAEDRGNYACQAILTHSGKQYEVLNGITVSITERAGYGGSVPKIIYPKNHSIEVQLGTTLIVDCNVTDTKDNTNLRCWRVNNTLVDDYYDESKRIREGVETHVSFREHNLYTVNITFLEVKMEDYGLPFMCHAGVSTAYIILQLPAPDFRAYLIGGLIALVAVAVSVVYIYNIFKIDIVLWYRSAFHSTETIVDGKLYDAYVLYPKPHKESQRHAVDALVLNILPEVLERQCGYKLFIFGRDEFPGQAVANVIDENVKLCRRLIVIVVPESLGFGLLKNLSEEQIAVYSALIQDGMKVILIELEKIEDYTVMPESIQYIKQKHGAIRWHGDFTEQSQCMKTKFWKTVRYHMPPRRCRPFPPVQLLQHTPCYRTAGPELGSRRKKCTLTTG
# UniProt P42336, sequence (whole entry, unmodified, looked up): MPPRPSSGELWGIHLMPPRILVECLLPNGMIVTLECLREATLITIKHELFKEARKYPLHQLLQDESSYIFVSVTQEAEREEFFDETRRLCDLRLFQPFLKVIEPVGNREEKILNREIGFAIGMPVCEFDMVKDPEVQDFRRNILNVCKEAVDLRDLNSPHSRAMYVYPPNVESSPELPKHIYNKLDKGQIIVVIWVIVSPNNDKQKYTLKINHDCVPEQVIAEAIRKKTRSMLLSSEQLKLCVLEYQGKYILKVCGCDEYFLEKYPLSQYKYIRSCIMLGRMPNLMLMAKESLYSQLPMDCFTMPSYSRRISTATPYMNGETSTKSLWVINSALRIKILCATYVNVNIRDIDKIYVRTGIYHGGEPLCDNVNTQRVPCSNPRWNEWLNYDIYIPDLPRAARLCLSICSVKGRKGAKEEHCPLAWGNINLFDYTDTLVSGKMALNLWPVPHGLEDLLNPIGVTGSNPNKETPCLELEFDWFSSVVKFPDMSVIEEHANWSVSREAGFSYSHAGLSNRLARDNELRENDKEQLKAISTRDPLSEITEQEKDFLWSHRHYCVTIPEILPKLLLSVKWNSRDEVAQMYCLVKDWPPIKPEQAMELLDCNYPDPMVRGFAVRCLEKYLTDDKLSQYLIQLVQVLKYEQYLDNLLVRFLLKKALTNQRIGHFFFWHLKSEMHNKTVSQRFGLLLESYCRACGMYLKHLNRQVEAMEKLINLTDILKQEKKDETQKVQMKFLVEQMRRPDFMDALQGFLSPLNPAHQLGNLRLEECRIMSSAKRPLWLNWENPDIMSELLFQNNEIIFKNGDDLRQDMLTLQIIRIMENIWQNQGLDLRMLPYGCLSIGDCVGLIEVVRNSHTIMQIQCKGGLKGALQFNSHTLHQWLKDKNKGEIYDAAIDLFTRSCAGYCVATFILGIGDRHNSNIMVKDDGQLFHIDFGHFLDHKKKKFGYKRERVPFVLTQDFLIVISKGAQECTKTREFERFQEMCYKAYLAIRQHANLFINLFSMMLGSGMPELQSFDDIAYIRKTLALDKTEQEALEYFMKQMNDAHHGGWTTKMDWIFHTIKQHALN
Compound,tested on,assay,test system,conditions,how to read,quantity,result
O=C(N/N=C/c1cc[n+](CC2CC2)c2ccccc12)c1cncc(C(=O)N/N=C/c2cc[n+](CC3CC3)c3ccccc23)n1,MYC parallel G4 DNA,FRET melting,,"1 µM, DNA 0.2 µM, together with: duplex DNA competitor 10 µM",,ΔTm,11.4 ± 0.3 °C
O=C(O)c1cc(O)c2c(c1)C(=O)c1cccc(O)c1C2=O,PNLIP,"enzyme activity, inhibitor, fluorescence",,50 µM,,remaining activity,7.85%
C[n+]1cc(/C=N/NC(=O)c2ccc3ccc4ccc(C(=O)N/N=C/c5cc6ccccc6[n+](C)c5)nc4c3n2)cc2ccccc21,MYC parallel G4 DNA,FRET melting,,"1 µM, DNA 0.2 µM, together with: duplex DNA competitor 10 µM",,ΔTm,5.8 ± 1.4 °C
O=C1CCC(N2C(=O)c3cccc4c(Cc5cnn(C6CCN(C(=O)C7(O)CCC7)CC6)c5)ccc2c34)C(=O)N1 (stereo not drawn),CRBN/Zinc finger protein Aiolos,"protein level, degrader, western blot",NCI-H929,"1 nM, 4 h",,remaining activity,18.6%
Cc1ccc(C[C@H](NC(=O)CN2CCCc3cc4cc(C(=O)NCCNC(=O)CCCC[C@@H]5SC[C@@H]6NC(=O)N[C@@H]65)c(=O)oc4cc32)C(=O)NC/C=C/S(=O)(=O)c2ccccc2)cc1,CTSS,inhibitor,,"5 µM, 60 min, together with: Z-Phe-Arg-AMC",reference: uninhibited control,remaining activity,8%
O=C1CCC(N2C(=O)c3cccc4c(Cc5cnn(C6CCNCC6)c5)ccc2c34)C(=O)N1 (stereo not drawn),CRBN/Zinc finger protein Aiolos,"protein level, degrader, western blot",NCI-H929,"10 nM, 4 h",,remaining activity,23.1%
O=S(=O)(c1ccc(-c2ccc3ncnc(Nc4ccc(OCc5ccc(F)cc5)c(Cl)c4)c3c2)cc1)N1CCOCC1,Leishmania major,"intracellular amastigote growth, luciferase",RAW264.7 macrophages,,,EC50,> 15 µM
O=C1c2cccc(O)c2C(=O)c2c(O)cc(CO)cc21,PNLIP,"enzyme activity, inhibitor, fluorescence",,50 µM,,remaining activity,8.1%
COc1cc(Nc2nc(C)cc(-c3cnn4nc(OC)ccc34)n2)cc(C(F)(F)F)c1,"Phosphatidylinositol 4,5-bisphosphate 3-kinase catalytic subunit alpha isoform (PIK3CA, Homo sapiens, UniProt P42336, E545A)",inhibitor,,1 µM,reference: control,remaining activity,77%
Cc1ccc2[c](c1)[Au-]([Cl])([Cl])[n+]1ccccc1-2,"Phospholipid hydroperoxide glutathione peroxidase GPX4 (GPX4, Homo sapiens, UniProt P36969)","inhibitor, GR-coupled NADPH",,"up to 36.3 µM, pre-incubation, together with: enzyme 100 nM",,remaining activity,18.7%
C#CCOC(=O)[C@]1(C)C=C(C(=O)Nc2cccc(C(=O)Nc3ccc(C)c(Nc4nccc(-c5cccnc5)n4)c3)c2)C(=O)CC1,MAPK9,"enzyme activity, inhibitor",,"44.44 µM, unit not given",reference: vehicle,remaining activity,0.0409
CC(C)[C@@H]1NC(=O)[C@H](Cc2ccccc2)NC(=O)CSC[C@@H](C(N)=O)NC(=O)[C@H](CCC(=O)O)NC(=O)[C@H](CO)NC(=O)[C@H](Cc2c[nH]c3cccc(Cl)c23)NC(=O)[C@H](C2CCCCC2)NC(=O)[C@H](C(C)C)NC(=O)[C@H](Cc2ccc(O)cc2)NC(=O)[C@H](CC(=O)O)NC(=O)[C@H](Cc2c[nH]c3ccccc23)NC(=O)[C@H](Cc2ccc(N)nc2)NC(=O)[C@H](Cc2c[nH]c3ccc(Cl)cc23)NC(=O)[C@H](CCC(=O)O)NC1=O,"Interleukin-1 receptor-like 2 (IL1RL2, Homo sapiens, UniProt Q9HB29)","SEAP reporter gene, antagonist",HEK-Blue IL-36R cells,"33.33 µM, 6 h, together with: IL-36 1 ng/mL",reference: untreated,remaining activity,2.4%
CCCC[C@H](NC(=O)COCCOCCNC(=O)CN1CCN(CC(=O)O)CCN(CC(=O)O)CC1)C(=O)N[C@H]1CC(=O)NCCCC[C@@H](C(N)=O)NC(=O)[C@H](Cc2c[nH]c3ccccc23)NC(=O)[C@H](CCCNC(=N)N)NC(=O)[C@@H](Cc2ccccc2)NC(=O)[C@H](Cc2c[nH]cn2)NC1=O [technetium-99m labelled],,,"C57 mouse, normal organs","iv, 0.037 MBq, 2 h",,tissue uptake,< 1.8 %ID/g
O=C1CCC(N2C(=O)c3cccc4c(Cc5ccc(CN6CCNCC6)cc5)ccc2c34)C(=O)N1 (stereo not drawn),CRBN/Zinc finger protein Aiolos,"protein level, degrader, western blot",NCI-H929,"10 nM, 4 h",,remaining activity,28.2%
COC(=O)c1cc2cc3c(cc2oc1=O)N(CC(=O)NC(Cc1cccc(Cl)c1)C(=O)NCC=CS(=O)(=O)c1ccccc1)CCC3 (stereo not drawn),CTSS,inhibitor,,"5 µM, 60 min, together with: Z-Phe-Arg-AMC",reference: uninhibited control,remaining activity,< 1%
CN(C)S(=O)(=O)c1ccccc1-c1ccc2ncnc(Nc3ccc(OCc4cccc(F)c4)c(Cl)c3)c2c1,Leishmania major,"intracellular amastigote growth, luciferase",RAW264.7 macrophages,,,EC50,18 µM
COC(=O)[C@@]1(C(C)C)C=C(C(=O)Nc2cccc(C(=O)Nc3ccc(Nc4nccc(-c5cccnc5)n4)c(C)c3)c2)C(=O)CC1,"Mitogen-activated protein kinase 8 (MAPK8, Homo sapiens, UniProt P45983)","kinase activity, inhibitor",,"0.1829 µM, unit not given, together with: 10 mM glutathione",reference: no inhibitor,remaining activity,0.764
Cc1cnc2nc1Nc1cccc(c1)COC/C=C/COCc1cc(ccc1OCCN1CCOCC1)N2,"Epidermal growth factor receptor (EGFR, Homo sapiens, UniProt P00533, del752-759)",,,concentration not given,reference: untreated control,remaining activity,97%
COC(=O)[C@@]1(C)C=C(C(=O)Nc2cccc(C(=O)Nc3ccc(Nc4nccc(-c5cccnc5)n4)c(C)c3)c2)C(=O)CC1,"Mitogen-activated protein kinase 14 (MAPK14, Homo sapiens, UniProt Q16539)","kinase activity, inhibitor",,"0.1829 µM, unit not given",reference: no inhibitor,remaining activity,1.09
CO[C@@H]1[C@@H](OC(=O)c2ccc(C)[nH]2)[C@@H](O)[C@H](Oc2ccc3c(O)c(NC(=O)c4c[nH]c(C(=O)Nc5c(O)c6ccc(O[C@@H]7OC(C)(C)[C@H](OC)[C@@H](OC(=O)c8ccc(C)[nH]8)[C@H]7O)c(C)c6oc5=O)c4C)c(=O)oc3c2C)OC1(C)C,"Large T antigen (Simian virus 40, UniProt P03070)",fork unwinding,,500 µM,,remaining activity,0%
C[C@](C(=O)NC1CCOCC1)(c1cncnc1)N(C(=O)[C@H](F)Cl)c1ccc(OC(F)(F)Cl)cc1,"Coagulation factor XII (F12, Homo sapiens, UniProt P00748)","enzyme activity, inhibitor",,10 µM,,remaining activity,102%
O=C=[N][Ru-4]123([n]4c5ccc(O)cc5c5c6c(c7cc(F)c[n+]1c7c54)C(=O)NC6=O)[S+]1CC[S+]2CC[S+]3CC1 (stereo not drawn),"Platelet-derived growth factor receptor alpha (PDGFRA, Homo sapiens, UniProt P16234, D842V)",enzyme activity,,"100 nM, human enzyme, together with: 10 µM ATP",reference: untreated,remaining activity,63%
Cc1ccc(-n2c(C)cc(C(=O)CN3CCC(C)CC3)c2C)cc1,"Ubiquitin carboxyl-terminal hydrolase 14 (USP14, Homo sapiens, UniProt P54578)","enzyme activity, inhibitor",,17 µM,,inhibition,14%
O=C1CCC(N2C(=O)c3cccc4c(Cc5cnn(C6CCN(C(=O)CS)CC6)c5)ccc2c34)C(=O)N1 (stereo not drawn),CRBN/Zinc finger protein Aiolos,"protein level, degrader, western blot",NCI-H929,"10 nM, 4 h",,remaining activity,93.6%
N#Cc1cnc2sc(C(=O)O)cc2c1N1CCc2[nH]nc(C(=O)N[C@@H](CC(=O)NCCOCCN3CCOCC3)c3cccc(Br)c3)c2C1,"Interleukin-1 receptor type 1 (IL1R1, Homo sapiens, UniProt P14778)","IL-8 release, antagonist",A-431,"6 µM, 18 h, together with: IL-1β 5 ng/mL",reference: untreated,remaining activity,87.4%
O=C1CCC(N2Cc3c(OCc4cn(C5CCNCC5)nn4)cccc3C2=O)C(=O)N1 (stereo not drawn),CRBN/Zinc finger protein Aiolos,"protein level, degrader, western blot",NCI-H929,"10 nM, 4 h",,remaining activity,75%
CC(C)=CCC/C(C)=C/CC/C(C)=C/CC/C(C)=C/CC1=C(C)C(=O)c2ccccc2C1=O,PNLIP,"enzyme activity, inhibitor, fluorescence",,50 µM,,remaining activity,18.5%
O=C1CCC(N2C(=O)c3cccc4c(Cc5cnn(C6CCN(C(=O)C7(O)CC7)CC6)c5)ccc2c34)C(=O)N1 (stereo not drawn),CRBN/Zinc finger protein Aiolos,"protein level, degrader, western blot",NCI-H929,"1 nM, 4 h",,remaining activity,29%
Cc1cc(NC(=O)c2cccc(N)c2)ccc1Nc1nccc(-c2cccnc2)n1,MAPK9,"enzyme activity, inhibitor",,"0.1829 µM, unit not given",reference: vehicle,remaining activity,0.863
CN(Cc1cc(C2CC2)on1)C(=O)c1cccc(-c2ccc3c(c2)CCO3)c1,"Acetyl-CoA synthetase (Cryptococcus neoformans, UniProt J9VFT1)","enzyme activity, inhibitor, coupled pyrophosphate",,3.13 µM,,remaining activity,93.1% and 100%

# A few entries again:
Compound,tested on,assay,test system,conditions,how to read,quantity,result
O=C(N/N=C/c1cc[n+](CC2CC2)c2ccccc12)c1cncc(C(=O)N/N=C/c2cc[n+](CC3CC3)c3ccccc23)n1,MYC parallel G4 DNA,FRET melting,,"1 µM, DNA 0.2 µM, together with: duplex DNA competitor 10 µM",,ΔTm,11.4 ± 0.3 °C
O=C(O)c1cc(O)c2c(c1)C(=O)c1cccc(O)c1C2=O,PNLIP,"enzyme activity, inhibitor, fluorescence",,50 µM,,remaining activity,7.85%
